{"data": "Assay results of several laboratories", "note": "Every numbered part comes from another study and shows a few of its results, in no order.", "chain of UniProt P29597 (whole entry, looked up)": "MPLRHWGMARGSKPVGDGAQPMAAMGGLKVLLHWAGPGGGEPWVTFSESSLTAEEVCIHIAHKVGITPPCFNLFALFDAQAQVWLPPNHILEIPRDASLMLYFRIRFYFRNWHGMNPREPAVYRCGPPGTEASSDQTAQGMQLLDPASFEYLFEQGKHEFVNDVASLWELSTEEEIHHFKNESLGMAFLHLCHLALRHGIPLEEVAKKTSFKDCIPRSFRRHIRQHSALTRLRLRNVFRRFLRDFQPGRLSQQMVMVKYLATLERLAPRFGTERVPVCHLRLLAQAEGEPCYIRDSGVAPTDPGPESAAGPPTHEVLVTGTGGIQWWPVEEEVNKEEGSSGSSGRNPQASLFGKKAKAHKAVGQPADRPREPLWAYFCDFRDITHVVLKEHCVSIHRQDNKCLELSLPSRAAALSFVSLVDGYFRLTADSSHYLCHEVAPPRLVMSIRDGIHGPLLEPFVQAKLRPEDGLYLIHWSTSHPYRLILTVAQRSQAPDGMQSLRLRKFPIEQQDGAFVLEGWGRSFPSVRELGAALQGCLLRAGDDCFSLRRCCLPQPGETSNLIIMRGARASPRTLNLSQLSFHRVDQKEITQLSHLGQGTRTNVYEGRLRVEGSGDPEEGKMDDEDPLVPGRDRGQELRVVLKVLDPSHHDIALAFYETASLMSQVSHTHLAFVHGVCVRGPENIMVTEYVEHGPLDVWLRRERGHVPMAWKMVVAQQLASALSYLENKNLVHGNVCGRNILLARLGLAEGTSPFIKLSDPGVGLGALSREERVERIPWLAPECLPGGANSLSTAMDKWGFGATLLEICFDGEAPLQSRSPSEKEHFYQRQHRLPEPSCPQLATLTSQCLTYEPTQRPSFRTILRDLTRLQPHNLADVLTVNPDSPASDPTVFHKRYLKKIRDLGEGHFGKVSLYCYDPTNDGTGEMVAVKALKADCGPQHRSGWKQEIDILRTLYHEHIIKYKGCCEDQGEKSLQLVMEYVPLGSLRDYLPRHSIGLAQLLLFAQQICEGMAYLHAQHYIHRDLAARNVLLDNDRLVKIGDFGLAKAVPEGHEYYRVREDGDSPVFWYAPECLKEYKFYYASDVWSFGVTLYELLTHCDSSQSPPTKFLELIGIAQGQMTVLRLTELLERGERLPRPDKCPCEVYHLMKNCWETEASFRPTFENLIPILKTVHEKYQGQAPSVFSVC", "chain of UniProt P21802 (whole entry, looked up)": "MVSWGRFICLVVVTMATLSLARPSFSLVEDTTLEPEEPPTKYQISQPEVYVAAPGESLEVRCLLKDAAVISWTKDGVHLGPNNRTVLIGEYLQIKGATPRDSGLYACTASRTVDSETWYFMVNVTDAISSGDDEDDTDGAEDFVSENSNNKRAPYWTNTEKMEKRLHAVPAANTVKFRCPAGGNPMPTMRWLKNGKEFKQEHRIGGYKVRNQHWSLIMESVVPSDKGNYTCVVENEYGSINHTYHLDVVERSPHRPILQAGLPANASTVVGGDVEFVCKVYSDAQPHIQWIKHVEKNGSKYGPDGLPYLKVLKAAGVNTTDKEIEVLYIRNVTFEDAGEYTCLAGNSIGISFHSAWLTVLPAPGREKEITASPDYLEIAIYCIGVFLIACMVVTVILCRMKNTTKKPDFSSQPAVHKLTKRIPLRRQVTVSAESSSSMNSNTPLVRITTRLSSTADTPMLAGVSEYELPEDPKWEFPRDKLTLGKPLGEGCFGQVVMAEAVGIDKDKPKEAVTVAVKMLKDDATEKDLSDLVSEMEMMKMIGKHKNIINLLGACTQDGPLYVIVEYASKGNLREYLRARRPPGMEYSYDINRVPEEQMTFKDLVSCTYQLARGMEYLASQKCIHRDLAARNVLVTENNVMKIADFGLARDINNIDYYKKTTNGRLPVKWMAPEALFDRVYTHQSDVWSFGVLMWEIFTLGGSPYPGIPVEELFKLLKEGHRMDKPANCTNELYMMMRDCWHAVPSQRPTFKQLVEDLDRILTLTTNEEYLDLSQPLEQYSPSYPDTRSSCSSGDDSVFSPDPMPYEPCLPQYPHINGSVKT", "chain of UniProt Q13546 (whole entry, looked up)": "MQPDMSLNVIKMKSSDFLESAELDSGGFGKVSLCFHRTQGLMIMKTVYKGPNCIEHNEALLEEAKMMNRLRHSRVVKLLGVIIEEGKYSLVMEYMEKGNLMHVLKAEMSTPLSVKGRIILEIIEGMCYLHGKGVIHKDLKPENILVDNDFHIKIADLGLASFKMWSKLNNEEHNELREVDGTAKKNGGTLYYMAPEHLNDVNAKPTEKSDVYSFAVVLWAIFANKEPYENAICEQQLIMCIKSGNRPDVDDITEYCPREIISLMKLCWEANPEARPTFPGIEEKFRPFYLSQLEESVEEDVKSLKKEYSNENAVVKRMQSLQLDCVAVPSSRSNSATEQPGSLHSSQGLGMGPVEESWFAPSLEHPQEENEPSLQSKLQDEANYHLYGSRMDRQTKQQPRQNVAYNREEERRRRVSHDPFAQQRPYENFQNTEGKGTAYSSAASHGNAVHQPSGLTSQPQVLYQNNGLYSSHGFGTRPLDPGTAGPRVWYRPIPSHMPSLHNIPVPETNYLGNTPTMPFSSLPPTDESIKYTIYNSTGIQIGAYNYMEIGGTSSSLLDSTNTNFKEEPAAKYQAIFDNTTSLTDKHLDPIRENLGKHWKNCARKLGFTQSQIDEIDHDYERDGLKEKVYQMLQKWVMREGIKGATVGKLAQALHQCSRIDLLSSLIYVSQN", "chain of UniProt O43283 (whole entry, looked up)": "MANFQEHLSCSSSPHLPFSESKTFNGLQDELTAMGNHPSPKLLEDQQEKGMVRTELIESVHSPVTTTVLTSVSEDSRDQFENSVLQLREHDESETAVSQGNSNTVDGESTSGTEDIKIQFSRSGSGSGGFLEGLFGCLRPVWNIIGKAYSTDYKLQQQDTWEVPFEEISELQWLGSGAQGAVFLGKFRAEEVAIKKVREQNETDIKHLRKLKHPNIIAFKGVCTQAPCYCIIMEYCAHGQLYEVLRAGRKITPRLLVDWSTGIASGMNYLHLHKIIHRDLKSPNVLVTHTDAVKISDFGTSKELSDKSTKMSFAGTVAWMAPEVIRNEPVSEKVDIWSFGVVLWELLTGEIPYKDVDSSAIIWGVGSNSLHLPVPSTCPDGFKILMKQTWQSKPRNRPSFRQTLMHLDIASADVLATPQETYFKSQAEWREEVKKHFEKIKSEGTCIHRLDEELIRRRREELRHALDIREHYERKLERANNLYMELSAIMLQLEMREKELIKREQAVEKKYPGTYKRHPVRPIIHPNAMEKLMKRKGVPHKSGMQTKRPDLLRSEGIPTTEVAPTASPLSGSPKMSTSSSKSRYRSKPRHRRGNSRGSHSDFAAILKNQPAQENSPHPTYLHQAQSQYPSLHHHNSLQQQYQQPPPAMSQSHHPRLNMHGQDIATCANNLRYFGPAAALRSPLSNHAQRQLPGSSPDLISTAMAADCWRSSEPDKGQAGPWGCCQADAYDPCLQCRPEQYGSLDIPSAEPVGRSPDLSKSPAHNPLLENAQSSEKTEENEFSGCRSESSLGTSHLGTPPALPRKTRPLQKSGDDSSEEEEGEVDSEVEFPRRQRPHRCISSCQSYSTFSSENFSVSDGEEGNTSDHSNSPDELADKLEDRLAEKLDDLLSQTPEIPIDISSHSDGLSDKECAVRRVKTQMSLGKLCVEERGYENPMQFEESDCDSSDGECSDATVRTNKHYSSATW", "chain of UniProt Q9NY57 (whole entry, looked up)": "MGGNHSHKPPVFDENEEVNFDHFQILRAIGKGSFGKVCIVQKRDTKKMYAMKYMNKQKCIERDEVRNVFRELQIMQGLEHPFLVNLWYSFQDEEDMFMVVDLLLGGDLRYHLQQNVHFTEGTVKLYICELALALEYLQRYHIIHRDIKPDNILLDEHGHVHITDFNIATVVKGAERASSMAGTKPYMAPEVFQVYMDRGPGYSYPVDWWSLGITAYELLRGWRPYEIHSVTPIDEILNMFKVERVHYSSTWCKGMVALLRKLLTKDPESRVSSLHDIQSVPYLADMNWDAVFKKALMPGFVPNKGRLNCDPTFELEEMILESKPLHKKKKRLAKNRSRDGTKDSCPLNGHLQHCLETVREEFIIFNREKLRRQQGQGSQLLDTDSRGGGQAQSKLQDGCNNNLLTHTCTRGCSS"}
{"data": "Study 1", "target": "Tyrosine-protein kinase Fgr (FGR, Homo sapiens, UniProt P09769)", "observed": "enzyme activity", "mode": "inhibitor", "concentration": "0.5 µM", "reference": "control", "chain of UniProt P09769 (whole entry, looked up)": "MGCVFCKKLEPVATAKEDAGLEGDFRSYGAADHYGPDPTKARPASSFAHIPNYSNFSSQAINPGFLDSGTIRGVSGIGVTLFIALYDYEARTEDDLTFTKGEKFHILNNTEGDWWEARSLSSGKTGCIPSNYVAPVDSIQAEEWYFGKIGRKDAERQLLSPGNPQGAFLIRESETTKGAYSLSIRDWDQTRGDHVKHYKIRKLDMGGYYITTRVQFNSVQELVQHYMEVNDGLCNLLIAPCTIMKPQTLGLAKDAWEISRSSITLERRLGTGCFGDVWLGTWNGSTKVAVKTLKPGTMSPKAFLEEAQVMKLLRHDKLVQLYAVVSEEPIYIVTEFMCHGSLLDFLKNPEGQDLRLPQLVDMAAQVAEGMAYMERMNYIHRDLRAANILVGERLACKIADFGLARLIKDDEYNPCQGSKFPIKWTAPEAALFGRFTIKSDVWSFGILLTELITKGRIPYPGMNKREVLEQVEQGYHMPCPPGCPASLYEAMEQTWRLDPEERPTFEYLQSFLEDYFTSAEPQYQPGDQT"}
{"Structure (SMILES)": "O=C1NC(=O)C(c2cn(CCCn3ccnc3)c3ccccc23)=C1Nc1ccccc1", "remaining activity": "86.3%"}
{"Structure (SMILES)": "O=C(Nc1cccc(Nc2cc(Nc3cccc(C(F)(F)F)c3)ncn2)c1)C1CC1", "remaining activity": "96.4%"}
{"Structure (SMILES)": "COc1ccc(C(=O)Nc2sc3c(c2C(N)=O)CCCC3)cc1OC", "remaining activity": "90%"}
{"Structure (SMILES)": "O=c1c2ccccc2[nH]c(=S)n1CCN1CCC(=C(c2ccc(F)cc2)c2ccc(F)cc2)CC1", "remaining activity": "95.4%"}
{"Structure (SMILES)": "Cn1sc(=O)n(Cc2ccccc2)c1=O", "remaining activity": "101%"}
{"Structure (SMILES)": "Cn1c2ccccc2c2c3c(c4c5ccccc5n(CCC#N)c4c21)CNC3=O", "remaining activity": "70.7%"}
{"Structure (SMILES)": "O=C(O)c1ccc2c3c1cccc3c(=O)n1c3ccccc3nc21", "remaining activity": "98.9%"}
{"Structure (SMILES)": "COc1ccc(CNC(=O)Nc2ncc([N+](=O)[O-])s2)cc1", "remaining activity": "92.4%"}
{"Structure (SMILES)": "O=C(CCCc1ccc(-c2ccccc2F)cc1)Nc1ccc(O)cc1", "remaining activity": "96%"}
{"Structure (SMILES)": "OCC(O)CCON=C1C(c2c(O)[nH]c3ccccc23)=Nc2ccccc21 (stereo not drawn)", "remaining activity": "11.6%"}
{"Structure (SMILES)": "Cc1cccc(-c2[nH]c(C(C)(C)C)nc2-c2ccc3c(c2)OCO3)n1", "remaining activity": "99.9%"}
{"Structure (SMILES)": "Nc1ncnc2n[nH]c(Nc3ccc(F)cc3)c12", "remaining activity": "89.5%"}
{"Structure (SMILES)": "O=C1NC(=O)C(c2cn(CCCO)c3ncccc23)=C1c1cnccn1", "remaining activity": "108%"}
{"Structure (SMILES)": "CNC(=O)c1cc(Oc2ccc(NC(=O)Nc3ccc(Cl)c(C(F)(F)F)c3)cc2)ccn1", "remaining activity": "88.7%"}
{"Structure (SMILES)": "COc1cc2ncnc(Nc3ccc(Oc4ccccc4)cc3)c2cc1OC", "remaining activity": "8.91%"}
{"data": "Study 2", "Compound": "C[C@H]1CC[C@H](n2c3cnccc3c3cnc(Nc4ccc5c(n4)CCN(C(=O)CO)C5)nc32)CC1", "method": "competition with immobilised ligand", "concentration": "1 µM"}
{"target": "Tyrosine-protein kinase TXK (TXK, Homo sapiens, UniProt P42681)", "observed": "binding", "remaining binding [%]": 73}
{"target": "Homeodomain-interacting protein kinase 2 (HIPK2, Homo sapiens, UniProt Q9H2X6)", "observed": "binding", "remaining binding [%]": 28}
{"target": "Fibroblast growth factor receptor 2 (FGFR2, Homo sapiens, UniProt P21802)", "observed": "cell-free assay", "remaining binding [%]": 100}
{"target": "BDNF/NT-3 growth factors receptor (NTRK2, Homo sapiens, UniProt Q16620)", "observed": "cell-free assay", "remaining binding [%]": 5}
{"target": "Non-receptor tyrosine-protein kinase TYK2, JH1 (TYK2, Homo sapiens, UniProt P29597)", "observed": "cell-free assay", "remaining binding [%]": 47}
{"target": "Mitogen-activated protein kinase kinase kinase 13 (MAP3K13, Homo sapiens, UniProt O43283)", "observed": "binding", "remaining binding [%]": 100}
{"target": "RAF proto-oncogene serine/threonine-protein kinase (RAF1, Homo sapiens, UniProt P04049)", "observed": "binding", "remaining binding [%]": 100}
{"target": "Ribosomal protein S6 kinase alpha-6, N-terminal kinase domain (RPS6KA6, Homo sapiens, UniProt Q9UK32)", "observed": "binding", "remaining binding [%]": 40}
{"data": "Study 3", "SMILES": "Cc1noc([C@H]2C[C@@H](c3ccc(C(F)(F)F)cc3)CN(C(=O)N3CCS(=O)(=O)C3)C2)n1", "observed": "cell-free assay", "method": "competition with immobilised ligand", "concentration": "1 µM"}
{"target": "Epidermal growth factor receptor (EGFR, Homo sapiens, UniProt P00533, G719S)", "remaining binding [%]": 100}
{"target": "Serine/threonine-protein kinase LATS2 (LATS2, Homo sapiens, UniProt Q9NRM7)", "remaining binding [%]": 100}
{"target": "Muscle, skeletal receptor tyrosine-protein kinase (MUSK, Homo sapiens, UniProt O15146)", "remaining binding [%]": 100}
{"target": "Inhibitor of nuclear factor kappa-B kinase subunit beta (IKBKB, Homo sapiens, UniProt O14920)", "remaining binding [%]": 80}
{"target": "Fibroblast growth factor receptor 3 (FGFR3, Homo sapiens, UniProt P22607)", "remaining binding [%]": 100}
{"target": "Epidermal growth factor receptor (EGFR, Homo sapiens, UniProt P00533, L861Q)", "remaining binding [%]": 78}
{"target": "Receptor-interacting serine/threonine-protein kinase 1 (RIPK1, Homo sapiens, UniProt Q13546)", "remaining binding [%]": 100}
{"target": "Atypical kinase COQ8A, mitochondrial (COQ8A, Homo sapiens, UniProt Q8NI60)", "remaining binding [%]": 91}
{"target": "Protein kinase C epsilon type (PRKCE, Homo sapiens, UniProt Q02156)", "remaining binding [%]": 100}
{"target": "Serine/threonine-protein kinase 32B (STK32B, Homo sapiens, UniProt Q9NY57)", "remaining binding [%]": 68}
{"data": "Study 4", "SMILES": "COc1ccc(-c2c(Nc3ccccn3)[nH]c3c(C4=CCCCC4)c(-c4ccccc4)nn3c2=O)cc1", "species": "human", "sample": "plasma", "route": "oral"}
{"method": "LC-MS/MS", "dose": "50 mg once daily", "Tlast [h]": 24}
{"dose": "200 mg twice daily", "Tlast [h]": 24}
{"method": "LC-MS/MS", "dose": "200 mg once daily", "Tlast [h]": 24}
{"note": "Repeated from above (study 1):"}
{"Structure (SMILES)": "O=c1c2ccccc2[nH]c(=S)n1CCN1CCC(=C(c2ccc(F)cc2)c2ccc(F)cc2)CC1", "remaining activity": "95.4%"}
{"Structure (SMILES)": "Cn1sc(=O)n(Cc2ccccc2)c1=O", "remaining activity": "101%"}
{"Structure (SMILES)": "Cn1c2ccccc2c2c3c(c4c5ccccc5n(CCC#N)c4c21)CNC3=O", "remaining activity": "70.7%"}
{"Structure (SMILES)": "O=C(O)c1ccc2c3c1cccc3c(=O)n1c3ccccc3nc21", "remaining activity": "98.9%"}
{"Structure (SMILES)": "COc1ccc(CNC(=O)Nc2ncc([N+](=O)[O-])s2)cc1", "remaining activity": "92.4%"}
{"Structure (SMILES)": "O=C(CCCc1ccc(-c2ccccc2F)cc1)Nc1ccc(O)cc1", "remaining activity": "96%"}
